{"data": "Experimental data of several laboratories", "target": "Mitogen-activated protein kinase 10 (MAPK10, Homo sapiens, UniProt P53779)", "note": "Protocols differ between the studies behind these lines.", "UniProt P53779, sequence (whole entry, looked up)": "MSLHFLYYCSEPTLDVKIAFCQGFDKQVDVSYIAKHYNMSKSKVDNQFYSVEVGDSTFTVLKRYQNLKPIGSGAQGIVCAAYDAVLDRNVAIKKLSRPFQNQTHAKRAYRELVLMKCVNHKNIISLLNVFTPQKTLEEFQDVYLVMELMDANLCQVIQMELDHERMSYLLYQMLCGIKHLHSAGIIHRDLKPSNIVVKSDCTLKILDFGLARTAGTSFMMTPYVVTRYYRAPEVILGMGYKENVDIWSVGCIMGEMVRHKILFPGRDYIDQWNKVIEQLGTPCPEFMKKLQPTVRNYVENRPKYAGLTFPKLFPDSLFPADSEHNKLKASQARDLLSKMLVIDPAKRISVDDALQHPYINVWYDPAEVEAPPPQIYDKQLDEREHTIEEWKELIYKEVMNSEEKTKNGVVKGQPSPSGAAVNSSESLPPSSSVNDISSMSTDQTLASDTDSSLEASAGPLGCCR"}
{"Compound": "CCCOc1ccc(OC)c(F)c1C(=O)c1ccc(C(=O)N[C@@H]2CNC[C@H]2NC(=O)c2ccc3[nH]ncc3c2)cc1", "assay": "enzyme activity", "conditions": "10 µM", "measurement": "remaining activity", "result": "72%"}
{"Compound": "O=C(NC1CCC1)c1ccc2nc(-c3cccc(NS(=O)(=O)NCCN4CCCCC4)c3)cn2c1", "assay": "enzyme activity", "conditions": "10 µM", "measurement": "remaining activity", "result": "93%"}
{"Compound": "Cc1cc(Nc2cc(N3CCN(C)CC3)nc(Sc3ccc(NC(=O)C4CC4)cc3)n2)[nH]n1", "assay": "kinase activity, KinaseProfiler", "conditions": "0.03 µM, species human", "scale": "baseline: control", "measurement": "remaining activity", "result": "105%"}
{"Compound": "C=CC(=O)N1CCC(COCC(=O)N2CCN(c3nc(-c4cnc(N)nc4C(F)F)nc(N4CCOC[C@@H]4C)n3)CC2)CC1", "assay": "KINOMEscan", "conditions": "1 µM", "scale": "baseline: DMSO control", "measurement": "remaining binding", "result": "80%"}
{"Compound": "C[C@@H](c1ccc(-n2cnc3c(N)ncnc32)cc1)N1CCc2nn(C)c(Cc3ccccc3)c2C1=O", "assay": "KINOMEscan", "conditions": "0.1 µM", "scale": "baseline: DMSO control", "measurement": "remaining binding", "result": "60%"}
{"Compound": "COc1cc(F)ccc1-c1ncnc(Nc2cccc(C[S@](C)(=N)=O)c2)n1", "assay": "kinase activity", "conditions": "10 µM, with: 10 µM ATP", "measurement": "remaining activity", "result": "58%"}
{"Compound": "O=C1NC(=O)/C(=C/c2ccc(-c3ccc(F)cc3O)o2)S1", "assay": "enzyme activity", "conditions": "10 µM", "measurement": "remaining activity", "result": "90%"}
{"Compound": "C1=C/COCc2cc(ccc2OCCN2CCCC2)Nc2nccc(n2)-c2cccc(c2)COC/1", "conditions": "concentration not given, kinase construct JNK3", "scale": "baseline: control", "measurement": "binding", "result": "33%"}
{"Compound": "Cc1nc(NC(=O)N2CCC[C@H]2C(N)=O)sc1-c1ccnc(C(C)(C)C(F)(F)F)c1", "assay": "KINOMEscan", "conditions": "10 µM", "measurement": "remaining binding", "result": "59%"}
{"Compound": "CCN(CC)c1ccc(C2=NNC(=O)CC2C)cc1[N+](=O)[O-] (stereo not shown)", "assay": "enzyme activity, inhibitor", "conditions": "10 µM", "scale": "baseline: vehicle", "measurement": "remaining activity", "result": "91%"}
{"note": "Repeated from above:"}
{"Compound": "COc1cc(F)ccc1-c1ncnc(Nc2cccc(C[S@](C)(=N)=O)c2)n1", "assay": "kinase activity", "conditions": "10 µM, with: 10 µM ATP", "measurement": "remaining activity", "result": "58%"}
{"Compound": "O=C1NC(=O)/C(=C/c2ccc(-c3ccc(F)cc3O)o2)S1", "assay": "enzyme activity", "conditions": "10 µM", "measurement": "remaining activity", "result": "90%"}
